Results collected from several papers.
Each numbered part is a random draw from the data of one study; scales do not carry over between parts.
UniProt P10721, sequence (whole entry, unmodified, looked up): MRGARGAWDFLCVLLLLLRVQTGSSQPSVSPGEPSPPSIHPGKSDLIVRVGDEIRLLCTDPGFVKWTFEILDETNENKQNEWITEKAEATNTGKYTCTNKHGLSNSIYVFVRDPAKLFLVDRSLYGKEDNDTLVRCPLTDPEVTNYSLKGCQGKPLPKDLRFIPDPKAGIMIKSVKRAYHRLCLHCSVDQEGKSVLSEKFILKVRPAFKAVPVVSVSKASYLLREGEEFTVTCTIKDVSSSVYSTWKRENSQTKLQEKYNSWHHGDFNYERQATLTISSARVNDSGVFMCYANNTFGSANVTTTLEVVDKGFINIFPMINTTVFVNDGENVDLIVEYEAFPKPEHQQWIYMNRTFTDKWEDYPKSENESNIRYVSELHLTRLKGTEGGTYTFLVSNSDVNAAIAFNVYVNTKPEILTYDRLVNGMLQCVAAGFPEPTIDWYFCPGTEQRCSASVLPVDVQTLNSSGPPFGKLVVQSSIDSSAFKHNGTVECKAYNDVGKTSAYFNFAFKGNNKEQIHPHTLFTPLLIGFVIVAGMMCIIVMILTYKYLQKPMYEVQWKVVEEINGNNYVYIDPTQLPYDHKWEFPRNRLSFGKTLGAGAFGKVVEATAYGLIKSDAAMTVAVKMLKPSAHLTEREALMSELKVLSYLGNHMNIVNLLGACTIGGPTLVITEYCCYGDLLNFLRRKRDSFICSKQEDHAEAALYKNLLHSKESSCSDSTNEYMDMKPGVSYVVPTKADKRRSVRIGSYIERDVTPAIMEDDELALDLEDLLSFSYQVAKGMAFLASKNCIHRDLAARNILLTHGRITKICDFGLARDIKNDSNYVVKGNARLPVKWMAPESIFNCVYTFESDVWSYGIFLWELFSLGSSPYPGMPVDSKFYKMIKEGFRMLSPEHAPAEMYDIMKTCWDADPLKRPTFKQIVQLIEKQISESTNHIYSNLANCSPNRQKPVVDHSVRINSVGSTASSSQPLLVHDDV
UniProt P15056, sequence (whole entry, unmodified, looked up): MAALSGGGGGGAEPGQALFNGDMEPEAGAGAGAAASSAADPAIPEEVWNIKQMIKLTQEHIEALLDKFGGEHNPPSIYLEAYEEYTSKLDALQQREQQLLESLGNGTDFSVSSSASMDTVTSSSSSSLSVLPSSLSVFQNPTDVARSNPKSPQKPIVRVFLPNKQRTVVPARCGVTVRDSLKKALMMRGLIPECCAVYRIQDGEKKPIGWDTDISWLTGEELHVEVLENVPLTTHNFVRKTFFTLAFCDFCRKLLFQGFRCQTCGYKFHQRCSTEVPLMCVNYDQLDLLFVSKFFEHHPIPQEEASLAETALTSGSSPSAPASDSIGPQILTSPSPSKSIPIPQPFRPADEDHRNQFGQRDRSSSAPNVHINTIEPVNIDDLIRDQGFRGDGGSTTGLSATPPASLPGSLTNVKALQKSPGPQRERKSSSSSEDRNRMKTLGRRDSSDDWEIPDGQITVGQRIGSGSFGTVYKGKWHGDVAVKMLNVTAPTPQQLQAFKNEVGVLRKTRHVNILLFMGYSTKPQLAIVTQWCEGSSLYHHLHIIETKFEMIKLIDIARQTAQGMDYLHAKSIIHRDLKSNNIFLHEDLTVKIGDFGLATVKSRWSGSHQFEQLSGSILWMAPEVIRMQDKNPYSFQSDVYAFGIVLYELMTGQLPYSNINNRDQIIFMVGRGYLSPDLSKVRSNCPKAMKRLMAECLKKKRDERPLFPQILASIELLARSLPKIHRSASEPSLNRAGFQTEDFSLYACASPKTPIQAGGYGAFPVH
UniProt Q9C098, sequence (whole entry, looked up): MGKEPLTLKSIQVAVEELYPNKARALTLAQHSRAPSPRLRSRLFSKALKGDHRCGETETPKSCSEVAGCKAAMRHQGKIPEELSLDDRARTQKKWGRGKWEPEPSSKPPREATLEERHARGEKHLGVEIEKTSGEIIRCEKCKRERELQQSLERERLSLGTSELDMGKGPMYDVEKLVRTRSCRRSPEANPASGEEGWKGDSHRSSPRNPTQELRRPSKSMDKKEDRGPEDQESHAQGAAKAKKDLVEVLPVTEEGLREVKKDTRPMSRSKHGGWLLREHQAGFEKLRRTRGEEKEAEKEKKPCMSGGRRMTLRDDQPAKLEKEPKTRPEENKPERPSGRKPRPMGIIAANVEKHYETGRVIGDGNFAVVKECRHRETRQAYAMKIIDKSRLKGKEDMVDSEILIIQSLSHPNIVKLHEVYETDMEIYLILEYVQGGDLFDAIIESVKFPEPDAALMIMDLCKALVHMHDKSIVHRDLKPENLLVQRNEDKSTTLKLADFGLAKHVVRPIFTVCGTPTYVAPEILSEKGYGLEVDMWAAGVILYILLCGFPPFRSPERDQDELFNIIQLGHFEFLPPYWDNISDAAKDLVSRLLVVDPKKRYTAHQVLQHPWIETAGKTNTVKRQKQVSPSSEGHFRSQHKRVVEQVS
UniProt Q13557, sequence (whole entry, looked up): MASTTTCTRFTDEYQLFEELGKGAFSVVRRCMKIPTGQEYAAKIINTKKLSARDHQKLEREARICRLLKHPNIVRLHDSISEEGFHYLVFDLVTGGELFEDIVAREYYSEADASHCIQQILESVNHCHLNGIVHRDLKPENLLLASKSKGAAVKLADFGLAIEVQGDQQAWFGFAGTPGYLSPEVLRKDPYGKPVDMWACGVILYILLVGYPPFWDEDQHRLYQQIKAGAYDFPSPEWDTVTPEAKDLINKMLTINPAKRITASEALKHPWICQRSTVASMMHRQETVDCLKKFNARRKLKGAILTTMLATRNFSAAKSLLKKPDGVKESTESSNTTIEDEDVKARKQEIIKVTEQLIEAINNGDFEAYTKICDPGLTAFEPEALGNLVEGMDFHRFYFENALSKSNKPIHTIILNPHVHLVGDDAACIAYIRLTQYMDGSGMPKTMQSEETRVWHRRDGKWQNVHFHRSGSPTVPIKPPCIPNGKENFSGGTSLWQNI
UniProt P21127, sequence (whole entry, looked up): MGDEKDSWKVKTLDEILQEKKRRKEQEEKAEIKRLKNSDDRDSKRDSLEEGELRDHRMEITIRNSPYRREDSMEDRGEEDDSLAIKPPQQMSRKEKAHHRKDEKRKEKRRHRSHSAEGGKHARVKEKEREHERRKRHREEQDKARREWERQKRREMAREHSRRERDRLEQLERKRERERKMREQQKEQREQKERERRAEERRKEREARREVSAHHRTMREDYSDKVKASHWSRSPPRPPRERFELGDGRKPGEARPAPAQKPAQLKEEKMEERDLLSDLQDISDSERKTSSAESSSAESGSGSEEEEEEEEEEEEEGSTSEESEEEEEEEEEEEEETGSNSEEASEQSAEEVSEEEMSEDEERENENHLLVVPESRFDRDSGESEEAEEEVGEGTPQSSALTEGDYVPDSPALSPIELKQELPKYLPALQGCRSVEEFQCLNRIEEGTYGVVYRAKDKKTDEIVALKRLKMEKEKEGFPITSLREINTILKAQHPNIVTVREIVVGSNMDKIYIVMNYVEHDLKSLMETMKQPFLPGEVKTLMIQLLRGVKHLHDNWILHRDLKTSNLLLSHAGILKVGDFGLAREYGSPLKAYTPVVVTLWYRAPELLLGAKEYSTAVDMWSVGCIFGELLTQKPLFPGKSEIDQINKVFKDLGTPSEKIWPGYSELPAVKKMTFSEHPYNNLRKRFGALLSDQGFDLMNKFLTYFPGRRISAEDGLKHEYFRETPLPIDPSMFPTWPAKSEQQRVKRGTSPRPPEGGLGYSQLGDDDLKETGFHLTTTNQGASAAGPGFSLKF
UniProt Q13976, sequence (whole entry, looked up): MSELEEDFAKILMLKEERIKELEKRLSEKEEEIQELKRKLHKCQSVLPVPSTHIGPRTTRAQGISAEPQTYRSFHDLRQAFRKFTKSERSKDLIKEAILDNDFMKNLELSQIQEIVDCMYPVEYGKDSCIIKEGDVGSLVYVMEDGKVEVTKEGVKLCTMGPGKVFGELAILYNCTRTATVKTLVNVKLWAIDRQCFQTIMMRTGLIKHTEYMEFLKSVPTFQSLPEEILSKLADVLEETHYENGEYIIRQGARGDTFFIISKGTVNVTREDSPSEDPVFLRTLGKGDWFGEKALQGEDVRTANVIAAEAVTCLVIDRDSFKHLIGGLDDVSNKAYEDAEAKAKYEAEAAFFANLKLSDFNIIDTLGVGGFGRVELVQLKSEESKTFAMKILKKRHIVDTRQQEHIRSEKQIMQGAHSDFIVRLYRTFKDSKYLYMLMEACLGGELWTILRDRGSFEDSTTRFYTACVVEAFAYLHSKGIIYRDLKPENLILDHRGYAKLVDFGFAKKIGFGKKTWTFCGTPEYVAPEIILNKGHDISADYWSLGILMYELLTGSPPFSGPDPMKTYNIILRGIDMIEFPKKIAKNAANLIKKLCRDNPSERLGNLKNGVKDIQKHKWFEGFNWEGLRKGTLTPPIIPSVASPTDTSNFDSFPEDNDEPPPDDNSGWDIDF

Block 1 — effect on: enzyme activity; mode: inhibitor; concentration: 0.5 µM; relative to: control; quantity: remaining activity
Target: Calcium/calmodulin-dependent protein kinase type II subunit gamma (CAMK2G, Homo sapiens, UniProt Q13555)
UniProt Q13555, sequence (whole entry, looked up): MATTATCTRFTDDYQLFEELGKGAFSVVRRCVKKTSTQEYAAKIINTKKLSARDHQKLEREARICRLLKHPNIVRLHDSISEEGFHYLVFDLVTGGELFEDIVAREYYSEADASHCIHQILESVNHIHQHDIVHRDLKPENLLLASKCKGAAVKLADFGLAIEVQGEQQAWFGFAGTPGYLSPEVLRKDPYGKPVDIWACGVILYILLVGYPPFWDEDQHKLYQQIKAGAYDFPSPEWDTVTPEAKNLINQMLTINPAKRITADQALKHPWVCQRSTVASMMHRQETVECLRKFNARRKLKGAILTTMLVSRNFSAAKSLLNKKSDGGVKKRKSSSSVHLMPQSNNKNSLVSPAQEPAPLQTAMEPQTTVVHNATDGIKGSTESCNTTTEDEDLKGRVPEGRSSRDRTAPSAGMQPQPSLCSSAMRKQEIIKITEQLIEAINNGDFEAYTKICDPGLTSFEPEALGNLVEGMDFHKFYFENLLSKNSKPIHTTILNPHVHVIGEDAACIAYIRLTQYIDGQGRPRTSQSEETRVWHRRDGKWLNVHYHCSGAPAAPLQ
Cc1cc(Nc2cc(N3CCN(C)CC3)nc(Sc3ccc(NC(=O)C4CC4)cc3)n2)[nH]n1: 109%
O=C1Nc2ccc(Br)cc2/C1=C/c1cc2c([nH]1)CCCC2: 92.4%
O=C1NC(=O)c2c1c1c3ccccc3[nH]c1n1cncc21: 52.3%
CN1CCN(c2ccc3nc(-c4c(N)c5c(F)cccc5[nH]c4=O)[nH]c3c2)CC1: 97.6%
COc1ccc2c(c1)c(C1=C(c3c[nH]c4ccccc34)C(=O)NC1=O)cn2CCCN(C)C: 91.1%
CN(C)S(=O)(=O)c1ccc2c(c1)/C(=C/c1cc3c([nH]1)CCCC3)C(=O)N2: 98.9%
COc1cccc(-c2cc(=O)c3ccccc3o2)c1N: 96.6%
CCCNC(=O)Nc1ccc(Oc2ncnc3cc(OC)c(OC)cc23)cc1Cl: 90.5%

Block 2 — effect on: cell-free assay; method: competition with immobilised ligand; concentration: 1 µM; quantity: remaining binding
Compound: CO[C@@H](C)c1c(Nc2ccc([C@H](N(C)C(=O)C3CCS(=O)(=O)CC3)C(F)(F)F)cc2)cnc2cc(Cl)nn12
DCLK3 (Homo sapiens, UniProt Q9C098): 100%
PI4KB (Homo sapiens, UniProt Q9UBF8): 82%
KIT (Homo sapiens, UniProt P10721, D816V): 96%
BRAF (Homo sapiens, UniProt P15056): 85%
Tyrosine-protein kinase JAK1, JH2 (JAK1, Homo sapiens, UniProt P23458): 100%
CAMK2D (Homo sapiens, UniProt Q13557): 86%
MYLK4 (Homo sapiens, UniProt Q86YV6): 86%
PRKG1 (Homo sapiens, UniProt Q13976): 85%
CDK11B (Homo sapiens, UniProt P21127): 88%
CDK14 (Homo sapiens, UniProt O94921): 100%
KIT (Homo sapiens, UniProt P10721, D816H): 100%
BRAF (Homo sapiens, UniProt P15056, V600E): 96%

Block 3 — species: human; matrix: microsomes or S9; concentration: 2 µM; time: 0.5 h; quantity: remaining compound
COC(CNC(=O)NCc1ncnn1C(C)(C)C)C(C)C (stereo not shown): > 99%
CCCNC(=O)[C@H](CC(C)C)NC(=S)NCCC: 67%
c1ccn2c(-c3noc(C4CCn5c(cnc5C5CCCCC5)C4)n3)cnc2c1 (stereo not shown): 36.9%
O=c1[nH]c(N2CCc3ccccc3C2)nc2ncc3c(c12)CCC3: < 1%

Mixed results
NC(=O)c1cccc(-c2cc(Nc3ccc(OC(F)(F)F)cc3)ncn2)c1  EC50 (BCR-ABL; kinase–CDC37 interaction, inhibitor; human cells): 241 nM

A few entries again (block 2):
CAMK2D (Homo sapiens, UniProt Q13557): 86%
MYLK4 (Homo sapiens, UniProt Q86YV6): 86%
